Measurements collected from several papers.
Each line is one published result; not all experiments were run side by side. ± gives the spread as reported. Where no end group is shown, it is not given here. [ ]: non-standard residue; d: D form. * marks the point of attachment.
ORF1 3C-like protease: ORF1, 3C-like protease (Southampton virus, UniProt Q04544)
MIB2: MIB2 1-836 (Homo sapiens, UniProt Q96AX9)
Sequence of UniProt Q96AX9 (whole entry, looked up): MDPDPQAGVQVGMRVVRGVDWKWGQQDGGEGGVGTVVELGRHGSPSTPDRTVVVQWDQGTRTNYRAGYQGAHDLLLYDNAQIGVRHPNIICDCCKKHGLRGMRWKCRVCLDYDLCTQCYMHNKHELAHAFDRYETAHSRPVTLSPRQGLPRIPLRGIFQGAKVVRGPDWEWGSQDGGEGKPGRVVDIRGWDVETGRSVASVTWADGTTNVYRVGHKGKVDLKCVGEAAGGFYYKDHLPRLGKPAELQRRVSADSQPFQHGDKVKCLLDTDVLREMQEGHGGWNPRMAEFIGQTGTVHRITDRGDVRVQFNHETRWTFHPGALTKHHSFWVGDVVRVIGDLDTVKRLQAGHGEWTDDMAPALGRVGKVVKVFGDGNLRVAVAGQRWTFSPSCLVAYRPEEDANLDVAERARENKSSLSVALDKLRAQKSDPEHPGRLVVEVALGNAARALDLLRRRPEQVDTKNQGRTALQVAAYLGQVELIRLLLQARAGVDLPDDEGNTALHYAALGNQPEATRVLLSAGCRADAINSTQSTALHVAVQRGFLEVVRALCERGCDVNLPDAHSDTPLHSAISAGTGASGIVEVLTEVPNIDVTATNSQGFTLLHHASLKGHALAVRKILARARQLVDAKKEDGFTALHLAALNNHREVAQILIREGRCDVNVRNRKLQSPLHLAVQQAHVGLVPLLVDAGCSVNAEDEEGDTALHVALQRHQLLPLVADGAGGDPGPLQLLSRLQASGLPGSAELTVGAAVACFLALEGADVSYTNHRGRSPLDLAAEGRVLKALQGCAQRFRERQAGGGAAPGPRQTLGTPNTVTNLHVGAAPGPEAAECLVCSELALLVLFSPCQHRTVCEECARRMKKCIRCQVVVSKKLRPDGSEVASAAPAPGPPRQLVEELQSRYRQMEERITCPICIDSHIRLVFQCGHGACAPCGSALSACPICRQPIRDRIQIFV
B1: CCL1 (Homo sapiens, UniProt P22362); chain KSMQVPFSRCCFSFAEQEIPLRAILCYRNTSSICSNEGLIFKLKRGKEACALDTVGWVQRHRKMLRHCPSKRK
B2: IgG1 antibody IgG1 (Homo sapiens); V domains shown; VH QVQLVQSGAQLKKPGESLKISCKGSGYNFSRYWIAWVRHMPGKGLEVMGIIYPDDSDTRYSPSVRGQVTISADKSTSIVYLQWSSLKASDTGIYYCARFGAGMTGMPRYFDTTRWFDPWGQGTQVTVSS; VL DQSVLTQPPSVSGAPGQRVTISCLGGSSNIGAGYDVHWYQHLPGAAPKLLISGNSNRPSGVPARFSGSKSGTSASLAITGLQAEDEADYYCQSYDNDLSQVFGGGTKLTVL
B3: VP35 1-215 (Zaire ebolavirus, UniProt Q05127); chain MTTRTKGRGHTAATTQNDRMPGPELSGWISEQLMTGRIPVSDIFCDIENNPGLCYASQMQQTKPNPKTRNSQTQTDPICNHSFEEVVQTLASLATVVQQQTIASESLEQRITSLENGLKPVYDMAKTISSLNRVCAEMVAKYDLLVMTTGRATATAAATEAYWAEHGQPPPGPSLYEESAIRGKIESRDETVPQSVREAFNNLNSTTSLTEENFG
B4: carD (Mycobacterium tuberculosis, UniProt P9WJG3); chain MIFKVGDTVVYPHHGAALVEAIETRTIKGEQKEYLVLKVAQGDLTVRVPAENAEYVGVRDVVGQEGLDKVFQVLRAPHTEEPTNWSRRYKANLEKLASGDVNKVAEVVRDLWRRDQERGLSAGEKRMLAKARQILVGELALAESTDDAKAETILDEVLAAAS
B5: Ncr1 Fc fusion (Mus musculus, UniProt Q8C567); chain QRINTEKETLPKPIIWAKPSIMVTNGNSVNIWCQGAQSASEYQLYFEGSFFALERPKPSRSMNKVRFFISQMTSHTAGIYTCFYQSGELWSKSSNPLKLVVTGLYDTPNLWVYPRPEVTLGENVTFFCQLKTATSKFFLLKERGSNHIQNKYGNIQAEFPMGPVTRAHRGTYRCFGSYNDYAWSFPSEPVTLLITGGVENSSLAPTDPTSSLDYWEFDLSTNESGLQKDSAFWDHTTQN
B6: HBx 1-120 R26C/C61A/C69A (Hepatitis B virus, UniProt P03165); sequence looked up; chain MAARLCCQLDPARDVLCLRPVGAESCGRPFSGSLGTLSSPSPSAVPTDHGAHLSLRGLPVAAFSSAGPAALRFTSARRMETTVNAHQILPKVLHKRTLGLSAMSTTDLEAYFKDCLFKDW
Sequence of UniProt Q9Y657 (whole entry, unmodified, looked up): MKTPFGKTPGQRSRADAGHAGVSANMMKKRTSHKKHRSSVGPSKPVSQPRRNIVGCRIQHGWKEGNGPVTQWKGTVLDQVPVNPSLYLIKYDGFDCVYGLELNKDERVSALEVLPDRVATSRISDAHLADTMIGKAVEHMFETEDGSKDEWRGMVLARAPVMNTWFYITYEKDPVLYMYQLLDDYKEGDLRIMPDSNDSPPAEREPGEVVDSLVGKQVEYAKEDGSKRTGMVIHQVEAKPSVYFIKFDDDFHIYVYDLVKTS

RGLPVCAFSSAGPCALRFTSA (HBx 56-76 (Hepatitis B virus, UniProt P03165))  binding (SPIN1 50-262 (Homo sapiens, UniProt Q9Y657); NMR titration; peptide): binds
PA0254 (Pseudomonas aeruginosa, UniProt Q9I6N5)  Km (O=C(O)c1ccc[nH]1; steady-state kinetics; pH 6, apparent): 4300 µM
RPIIWIGQEISRVGDRENAYYAR  Kd (Apoptosis regulator BHRF1 (Epstein-Barr virus, UniProt P03182); binding, fluorescence anisotropy; peptide): 0.0022 ± 0.0013 µM
RAD18 fragment (Homo sapiens) (sequence not shown)  binding (M (Nipah virus, UniProt Q9IK90); pull-down): binds
BM2 transmembrane peptide (Influenza B virus)  pKa (solid-state NMR, refers to: His19; VM+ membrane pellets; 243 K, membrane-bound tetramer, no drug, second protonation): 5.7
YWHAE (Homo sapiens, UniProt P62258-1)  binding (NS3 full-length, GST fusion (dengue virus 2, UniProt P14340); pull-down): binds
LGALS3 fragment (Homo sapiens) (sequence not shown)  Kd (S RBD (SARS-CoV-2); native MS; pH 7.4, ammonium acetate 200 mM, total glycoform signal area): 5.2 ± 0.4 µM
VP7 (Rhesus rotavirus, UniProt P12476)  binding (VP5* VP4 fragment (rhesus rotavirus, UniProt P12473); cryo-EM; local reconstruction, upright conformation): binds
B1 (CCL1)  pIC50 (ORF74 whole (human herpesvirus 8, UniProt Q98146); competition with anti-ORF74 antibody binding, flow cytometry; HEK293A.ORF74): 6.46
B2 (IgG1 antibody IgG1)  IC50 (S receptor-binding domain (SARS-CoV); pseudovirus neutralisation, neutraliser; antibody, Vero): 0.07 µg/mL
Ac-EFQLQ-pNA (N-acetyl, C-pNA; pNA = O=[N+]([O-])c1ccc(N*)cc1)  Km (ORF1 3C-like protease; substrate, pNA substrate cleavage; pH 8.5): 300 µM
SARS-CoV spike RBD fragment (SARS-CoV) (sequence not shown)  koff (ACE2 fragment (Homo sapiens); SPR): 0.048 s⁻¹
MEASGVNYQNMNKQTT  inhibition (Polyprotein P1234, nsP2 protease domain (Chikungunya virus, UniProt Q8JUX6); protease activity, FRET; peptide; 50 µM, 30 min, pH 7.5, 37 °C): no inhibition
SLEV[pT]EAD (RAD9 residues 188-195 (Saccharomyces cerevisiae); phosphothreonine; pT = C[C@@H](OP(=O)(O)O)[C@H](N)C(=O)O)  Kd (embR 1-388 (Mycobacterium tuberculosis, UniProt P9WGJ9); BLI; peptide): 1.52 µM
B3 (VP35 1-215)  Kd (MIB2; ITC): 5.4 ± 2.5 µM
S protein HR2 (mouse hepatitis virus) (sequence not shown)  binding (S HR1 (Murine hepatitis virus A59); crystal structure): binds
MSDNGPQNQRNAPRITFGGPSDSTG (N 1-25 (SARS-CoV-2, UniProt P0DTC9))  Kd (G3BP2 fragment (Homo sapiens); ITC; peptide): 10.9 µM
Ac-DEFQLQ-pNA (N-acetyl, C-p-nitroanilide; pNA = O=[N+]([O-])c1ccc(N*)cc1)  Km (ORF1 3C-like protease; substrate, pNA substrate cleavage; pH 8.5): 800 µM
B3 (VP35 1-215)  molecule per partner (MIB2; ITC): 0.8 ± 0.2
B4 (carD)  melting temperature (rpoB 47-433 (Mycobacterium tuberculosis, UniProt P9WGY9); DSF): 39.2 ± 0.1 °C
B5 (Ncr1 Fc fusion)  binding (HA/IgG1 Fc fusion extracellular domain 18-528 (influenza A virus); overlay blot; Fc fusion): binds
C protein fragment (Measles virus) (sequence not shown)  binding (L protein (Measles virus, UniProt P12576); cryo-EM structure): binds
B6 (HBx 1-120 R26C/C61A/C69A)  binding (SPIN1 50-262 C96A/H252F (Homo sapiens, UniProt Q9Y657); NMR titration): binds
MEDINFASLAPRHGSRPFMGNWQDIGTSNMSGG  half-maximal binding pH (adenovirus type 5 hexon trimer; native mass spectrometry; peptide; 1 µM): 6.5 to 7

A few entries again:
LGALS3 fragment (Homo sapiens) (sequence not shown)  Kd (S RBD (SARS-CoV-2); native MS; pH 7.4, ammonium acetate 200 mM, total glycoform signal area): 5.2 ± 0.4 µM
VP7 (Rhesus rotavirus, UniProt P12476)  binding (VP5* VP4 fragment (rhesus rotavirus, UniProt P12473); cryo-EM; local reconstruction, upright conformation): binds
B1 (CCL1)  pIC50 (ORF74 whole (human herpesvirus 8, UniProt Q98146); competition with anti-ORF74 antibody binding, flow cytometry; HEK293A.ORF74): 6.46
B2 (IgG1 antibody IgG1)  IC50 (S receptor-binding domain (SARS-CoV); pseudovirus neutralisation, neutraliser; antibody, Vero): 0.07 µg/mL
